# Measured values of several laboratories.
# Every numbered part comes from another study and shows a few of its results, in no order.
# Chain of UniProt P06241 (whole entry, looked up): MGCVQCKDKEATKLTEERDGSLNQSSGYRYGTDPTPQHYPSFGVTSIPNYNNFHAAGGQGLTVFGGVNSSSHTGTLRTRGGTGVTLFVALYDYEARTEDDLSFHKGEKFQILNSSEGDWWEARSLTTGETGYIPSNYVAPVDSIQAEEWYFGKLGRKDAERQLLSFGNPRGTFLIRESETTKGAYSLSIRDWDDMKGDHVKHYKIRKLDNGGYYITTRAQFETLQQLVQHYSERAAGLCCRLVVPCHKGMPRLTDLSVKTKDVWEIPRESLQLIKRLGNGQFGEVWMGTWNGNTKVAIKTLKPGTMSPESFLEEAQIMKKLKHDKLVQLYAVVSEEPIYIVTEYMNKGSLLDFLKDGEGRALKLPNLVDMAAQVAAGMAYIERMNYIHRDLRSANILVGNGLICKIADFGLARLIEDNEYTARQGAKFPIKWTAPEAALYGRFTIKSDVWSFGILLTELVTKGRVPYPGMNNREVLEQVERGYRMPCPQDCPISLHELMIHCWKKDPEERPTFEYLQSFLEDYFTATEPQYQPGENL
# Chain of UniProt P53667 (whole entry, looked up): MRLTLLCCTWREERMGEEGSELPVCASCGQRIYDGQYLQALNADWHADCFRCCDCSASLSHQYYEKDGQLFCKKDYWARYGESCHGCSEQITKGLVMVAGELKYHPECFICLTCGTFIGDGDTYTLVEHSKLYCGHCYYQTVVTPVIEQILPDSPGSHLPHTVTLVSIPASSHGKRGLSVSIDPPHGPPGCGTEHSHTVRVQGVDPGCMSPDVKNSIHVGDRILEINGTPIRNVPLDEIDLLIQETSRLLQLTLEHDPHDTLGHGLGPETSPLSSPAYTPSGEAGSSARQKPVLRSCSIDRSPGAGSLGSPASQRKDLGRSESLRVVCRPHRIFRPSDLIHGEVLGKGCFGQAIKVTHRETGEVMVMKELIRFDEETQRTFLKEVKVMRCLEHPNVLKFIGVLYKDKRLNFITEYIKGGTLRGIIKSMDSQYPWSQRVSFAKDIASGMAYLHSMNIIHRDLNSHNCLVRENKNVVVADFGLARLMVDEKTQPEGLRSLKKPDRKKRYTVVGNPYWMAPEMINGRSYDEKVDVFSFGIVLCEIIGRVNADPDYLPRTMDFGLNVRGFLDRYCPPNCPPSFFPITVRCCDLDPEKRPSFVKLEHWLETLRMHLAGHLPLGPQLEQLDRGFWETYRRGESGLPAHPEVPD
# Chain of UniProt Q8NG66 (whole entry, looked up): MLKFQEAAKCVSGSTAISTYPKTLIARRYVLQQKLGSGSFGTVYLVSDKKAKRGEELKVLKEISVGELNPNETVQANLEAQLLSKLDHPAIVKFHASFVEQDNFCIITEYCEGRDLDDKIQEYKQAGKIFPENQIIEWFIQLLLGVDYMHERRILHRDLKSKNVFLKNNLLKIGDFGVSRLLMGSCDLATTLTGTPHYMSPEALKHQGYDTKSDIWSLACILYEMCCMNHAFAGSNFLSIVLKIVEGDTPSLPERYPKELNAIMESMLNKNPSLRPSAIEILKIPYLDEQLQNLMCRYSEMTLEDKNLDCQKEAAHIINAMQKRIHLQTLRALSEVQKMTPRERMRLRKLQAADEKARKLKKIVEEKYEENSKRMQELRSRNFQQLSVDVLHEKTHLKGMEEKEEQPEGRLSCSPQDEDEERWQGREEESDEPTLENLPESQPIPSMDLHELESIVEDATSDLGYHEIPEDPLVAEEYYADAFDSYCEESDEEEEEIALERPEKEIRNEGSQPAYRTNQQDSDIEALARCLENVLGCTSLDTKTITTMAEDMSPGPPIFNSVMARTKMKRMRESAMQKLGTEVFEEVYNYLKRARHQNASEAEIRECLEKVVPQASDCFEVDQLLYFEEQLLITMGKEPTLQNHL
# Chain of UniProt Q9UM73 (whole entry, looked up): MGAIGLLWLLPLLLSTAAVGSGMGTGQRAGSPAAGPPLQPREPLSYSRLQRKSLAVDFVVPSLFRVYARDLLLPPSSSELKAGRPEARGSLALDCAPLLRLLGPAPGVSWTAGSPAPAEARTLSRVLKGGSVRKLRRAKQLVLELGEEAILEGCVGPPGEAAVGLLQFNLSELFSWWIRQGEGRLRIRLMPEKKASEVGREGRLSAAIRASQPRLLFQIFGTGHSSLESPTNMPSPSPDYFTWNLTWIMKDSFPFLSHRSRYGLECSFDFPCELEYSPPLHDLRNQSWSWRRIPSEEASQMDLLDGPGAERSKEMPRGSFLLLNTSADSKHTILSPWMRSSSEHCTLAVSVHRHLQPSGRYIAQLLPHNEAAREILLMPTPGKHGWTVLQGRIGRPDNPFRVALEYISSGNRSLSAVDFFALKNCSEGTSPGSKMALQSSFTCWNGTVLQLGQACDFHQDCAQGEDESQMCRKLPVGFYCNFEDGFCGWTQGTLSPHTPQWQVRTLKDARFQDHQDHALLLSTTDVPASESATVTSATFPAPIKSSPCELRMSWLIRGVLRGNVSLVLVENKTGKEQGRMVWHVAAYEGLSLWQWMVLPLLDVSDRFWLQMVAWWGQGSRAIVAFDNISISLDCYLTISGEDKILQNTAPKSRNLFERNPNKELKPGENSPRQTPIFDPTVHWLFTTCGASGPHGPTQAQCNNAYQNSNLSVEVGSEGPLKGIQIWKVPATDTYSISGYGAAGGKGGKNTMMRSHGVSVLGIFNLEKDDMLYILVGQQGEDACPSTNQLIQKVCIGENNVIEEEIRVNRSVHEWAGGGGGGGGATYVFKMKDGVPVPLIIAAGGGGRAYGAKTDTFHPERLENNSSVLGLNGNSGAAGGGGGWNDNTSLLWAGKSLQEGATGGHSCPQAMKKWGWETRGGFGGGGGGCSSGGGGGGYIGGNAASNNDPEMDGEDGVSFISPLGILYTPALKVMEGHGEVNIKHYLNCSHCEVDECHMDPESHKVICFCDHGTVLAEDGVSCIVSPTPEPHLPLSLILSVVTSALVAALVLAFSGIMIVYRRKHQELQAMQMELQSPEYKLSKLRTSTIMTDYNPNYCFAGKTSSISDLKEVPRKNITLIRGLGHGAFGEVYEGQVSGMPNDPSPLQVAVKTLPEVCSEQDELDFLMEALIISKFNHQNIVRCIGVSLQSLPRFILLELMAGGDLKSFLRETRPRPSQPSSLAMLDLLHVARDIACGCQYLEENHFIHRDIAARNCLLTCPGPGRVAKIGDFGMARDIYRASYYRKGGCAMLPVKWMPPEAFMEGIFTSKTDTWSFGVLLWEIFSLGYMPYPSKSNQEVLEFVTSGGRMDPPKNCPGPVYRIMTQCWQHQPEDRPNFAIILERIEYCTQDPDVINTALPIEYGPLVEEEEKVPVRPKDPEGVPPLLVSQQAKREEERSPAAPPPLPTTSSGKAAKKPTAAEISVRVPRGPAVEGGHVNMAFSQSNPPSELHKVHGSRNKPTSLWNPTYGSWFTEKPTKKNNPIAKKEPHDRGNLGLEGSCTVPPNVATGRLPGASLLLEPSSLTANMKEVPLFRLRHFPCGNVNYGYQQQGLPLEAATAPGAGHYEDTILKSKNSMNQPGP
# Chain of UniProt O95819 (whole entry, looked up): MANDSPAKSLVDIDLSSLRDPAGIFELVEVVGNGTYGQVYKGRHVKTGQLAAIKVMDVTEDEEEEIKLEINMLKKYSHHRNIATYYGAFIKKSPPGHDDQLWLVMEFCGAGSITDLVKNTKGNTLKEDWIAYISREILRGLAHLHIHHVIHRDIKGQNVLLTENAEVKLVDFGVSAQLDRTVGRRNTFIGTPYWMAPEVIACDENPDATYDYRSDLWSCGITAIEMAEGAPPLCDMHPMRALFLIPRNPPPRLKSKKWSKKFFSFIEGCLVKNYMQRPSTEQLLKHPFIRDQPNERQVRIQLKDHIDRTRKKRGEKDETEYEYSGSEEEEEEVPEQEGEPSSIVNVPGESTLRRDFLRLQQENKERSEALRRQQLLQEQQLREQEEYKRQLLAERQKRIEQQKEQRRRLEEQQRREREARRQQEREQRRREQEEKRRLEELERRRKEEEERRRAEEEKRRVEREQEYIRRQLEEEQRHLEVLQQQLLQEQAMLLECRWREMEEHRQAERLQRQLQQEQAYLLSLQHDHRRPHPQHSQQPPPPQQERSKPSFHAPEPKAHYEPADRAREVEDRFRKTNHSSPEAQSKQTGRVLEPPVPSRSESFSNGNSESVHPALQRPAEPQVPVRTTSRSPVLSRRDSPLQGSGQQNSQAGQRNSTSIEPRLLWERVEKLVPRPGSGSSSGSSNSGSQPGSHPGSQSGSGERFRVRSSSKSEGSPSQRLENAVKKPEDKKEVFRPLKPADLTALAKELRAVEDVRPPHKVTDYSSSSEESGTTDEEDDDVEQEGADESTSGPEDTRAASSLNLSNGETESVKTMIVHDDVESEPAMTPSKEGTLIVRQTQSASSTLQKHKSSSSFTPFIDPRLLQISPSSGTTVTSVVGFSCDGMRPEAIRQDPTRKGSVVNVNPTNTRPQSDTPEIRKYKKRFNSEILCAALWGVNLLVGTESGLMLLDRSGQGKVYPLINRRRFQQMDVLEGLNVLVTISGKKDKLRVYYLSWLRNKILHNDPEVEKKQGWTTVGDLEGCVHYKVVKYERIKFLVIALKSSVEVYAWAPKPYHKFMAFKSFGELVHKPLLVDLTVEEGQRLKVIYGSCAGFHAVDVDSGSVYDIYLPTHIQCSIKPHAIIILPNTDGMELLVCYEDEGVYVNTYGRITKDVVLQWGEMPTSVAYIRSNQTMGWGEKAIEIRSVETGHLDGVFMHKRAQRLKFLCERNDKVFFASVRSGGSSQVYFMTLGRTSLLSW
# Chain of UniProt P51817 (whole entry, looked up): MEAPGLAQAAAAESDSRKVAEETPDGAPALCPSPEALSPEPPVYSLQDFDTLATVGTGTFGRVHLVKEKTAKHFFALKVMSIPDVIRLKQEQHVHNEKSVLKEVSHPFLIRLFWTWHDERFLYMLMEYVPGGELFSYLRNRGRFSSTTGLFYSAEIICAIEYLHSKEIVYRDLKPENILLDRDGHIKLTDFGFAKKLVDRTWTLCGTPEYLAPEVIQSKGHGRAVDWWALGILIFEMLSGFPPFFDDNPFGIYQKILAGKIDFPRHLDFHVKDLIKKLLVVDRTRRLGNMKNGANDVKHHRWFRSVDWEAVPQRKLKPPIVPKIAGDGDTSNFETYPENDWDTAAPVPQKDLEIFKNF

# Sample 1
# Compound: C[C@@H](c1cccc(C#N)c1)n1cc(Cl)cc(C(N)=O)c1=N
# Method: competition with immobilised ligand
# Tested at: 1 µM
target,test,remaining binding [%]
"MAP4K4 (Homo sapiens, UniProt O95819)",cell-free assay,89
"RAF1 (Homo sapiens, UniProt P04049)",cell-free assay,100
"Tyrosine-protein kinase ABL1, phosphorylated (ABL1, Homo sapiens, UniProt P00519)",cell-free assay,73
"FYN (Homo sapiens, UniProt P06241)",cell-free assay,65
"NTRK1 (Homo sapiens, UniProt P04629)",cell-free assay,100
"DDR1 (Homo sapiens, UniProt Q08345)",cell-free assay,88
"EPHA2 (Homo sapiens, UniProt P29317)",cell-free assay,88
"FLT3 (Homo sapiens, UniProt P36888, F691L/ITD)",cell-free assay,85
"LTK (Homo sapiens, UniProt P29376)",cell-free assay,94
"EPHB6 (Homo sapiens, UniProt O15197)",cell-free assay,100
"Cyclin-dependent kinase 4, with cyclin D1 (CDK4, Homo sapiens, UniProt P11802)",cell-free assay,96
"CDK11A (Homo sapiens, UniProt Q9UQ88)",binding,90
"STK3 (Homo sapiens, UniProt Q13188)",cell-free assay,96

# Sample 2
# Host: mouse
# Medium: microsomes or S9
# Tested at: 2 µM
# Time: 0.5 h
SMILES,remaining compound
COc1ncc(NC(=O)CCCNC(=O)OC(C)(C)C)cc1C#N,16.7%
O=C(c1ccc2nncn2c1)N1CC(c2ccccc2)C2(CCC2)C1 (stereo not shown),73.8%
CCC(C(=O)Nc1c(C)cc(C)cc1C)n1nc(C)c2c(C)onc2c1=O (stereo not shown),21.3%
CN(C)S(=O)(=O)c1cc(C(=O)NCC(c2ccccc2)N2CCOCC2)c(Cl)cc1Cl (stereo not shown),0.568%
COc1cccc2c(C(C(=O)O)N3CCN(C4=Nc5ccccc5Oc5ccccc54)CC3)c[nH]c12 (stereo not shown),74.2%
CC(=O)N1CCOc2cc(S(=O)(=O)N3CSC[C@@H]3C(=O)NCc3csc(C)n3)c(C)cc21,2.92%
CC(C)(C)c1cc(SCC(=O)O)cc(C(C)(C)C)c1O,> 99%
COc1cc(=O)n(-c2ccccc2)cc1C(=O)NCC1CCCO1 (stereo not shown),61.6%
CCc1c[nH]c2ncnc(NCC(Cc3ccccc3)c3ccccn3)c12 (stereo not shown),0.12%
CCS(=O)(=O)Nc1ccc(-n2nc(C)c(-c3ccc(Cl)cc3)cc2=O)cc1,39.9%
COc1ccc(-c2cc(C(=O)N3CCc4ccccc4C3)n[nH]2)cc1S(=O)(=O)N(C)C,2.87%
CC(C)=CCn1c(COc2ccc(Br)cc2Cl)noc1=O,> 99.9%
Cc1cc(C(=O)O)nn1-c1ccc(S(C)(=O)=O)cc1,97.7%
Cn1c(=O)c2c(n(C)c1=O)n(CC(=O)NC(C)(C)C)c(=O)n2C,63.1%
COc1ccc(/C=C/c2cc(OC)cc3oc(-c4ccc(OC)cc4)c(-c4cc(OC)cc(OC)c4)c23)cc1,91.7%
COc1cccc(Nc2nnc(SCC(=O)OC(C)(C)C)s2)c1,0%
Cc1cc(=O)n2c3ccccc3nc2n1CC(=O)c1ccco1,2.23%
CCc1sc(C(=O)Nn2cnnc2)cc1Br,81.9%
COCCNC(=O)[C@@H]1C[C@H](Oc2cccnc2)CN1C(=O)c1ccc(OC)nc1OC,26.8%

# Sample 3
# Target: Bromodomain-containing protein 4, BD1 (BRD4, Homo sapiens, UniProt O60885)
# Tested at: 50 µM
Compound,inhibition
CN1CCN(CCOc2cc(OC3CCOCC3)c3c(Nc4c(Cl)ccc5c4OCO5)ncnc3c2)CC1,16.1%
Cc1cnc(NC(=O)Nc2cc(Br)c(C)cc2OC[C@@H]2CNCCO2)cn1,35.1%
COc1ccc(-c2ccc3c(N4CCOC[C@@H]4C)nc(N4CCOC[C@@H]4C)nc3n2)cc1CO,-48%
CC(C)(C)Cn1c(N)nc2ccc(-c3[nH]c(C(C)(C)C)nc3-c3ccc(F)cc3)nc21,72.7%
Cn1cc(C2=C(c3ccc(Cl)cc3Cl)C(=O)NC2=O)c2ccccc21,31.2%
Nc1ncnc2c1c(COc1cccc(Cl)c1)nn2C1CCOCC1,5.6%
Cc1cc(Nc2cc(N3CCN(C)CC3)nc(Sc3ccc(NC(=O)C4CC4)cc3)n2)[nH]n1,35.9%
Cc1c(NC(=O)OC[C@@H]2COCCN2)cn2ncnc(Nc3ccc4c(cnn4Cc4cccc(F)c4)c3)c12,77.2%
Cc1nc(NC(=O)N2CCC[C@H]2C(N)=O)sc1-c1ccnc(C(C)(C)C(F)(F)F)c1,2.3%
CO[C@@H](C(=O)N1Cc2n[nH]c(NC(=O)c3ccc(N4CCN(C)CC4)cc3)c2C1)c1ccccc1,-0.85%
O=c1sn(-c2cccc3ccccc23)c(=O)n1Cc1ccccc1,82.3%
O=C(NCCCNc1nc(Nc2cccc(NC(=O)N3CCCC3)c2)ncc1I)c1cccs1,25.7%
COC(=O)c1ccc2c(c1)NC(=O)/C2=C(\Nc1ccc(N(C)C(=O)CN2CCN(C)CC2)cc1)c1ccccc1,18.8%
CCn1c(=O)c(-c2cc[nH]n2)cc2c(C)nc(N)nc21,10.2%
Cc1ccc(-n2nc(C(C)(C)C)cc2NC(=O)Nc2ccc(OCCN3CCOCC3)c3ccccc23)cc1,46.9%
Cn1c(=O)c(F)c(Nc2ccc(I)cc2F)c2c(=O)n(C[C@@H](O)CO)cnc21,12.7%

# Sample 4
# SMILES: CCCCc1c(-c2ccc(OC)cc2)[nH]c2nccnc12
# Effect on: enzyme activity
# Mode: inhibitor
# Tested at: 0.5 µM
# Reference: control
target,remaining activity [%]
"PRKX (Homo sapiens, UniProt P51817)",102
"PASK (Homo sapiens, UniProt Q96RG2)",97.6
"Cyclin-dependent kinase 3, with cyclin E (CDK3, Homo sapiens, UniProt Q00526)",83.8
"TAOK3 (Homo sapiens, UniProt Q9H2K8)",103
"SRC (Homo sapiens, UniProt P12931)",58.8
"FYN (Homo sapiens, UniProt P06241)",61.3
"AKT1 (Homo sapiens, UniProt P31749)",113
"PKN1 (Homo sapiens, UniProt Q16512)",89.1
"NEK11 (Homo sapiens, UniProt Q8NG66)",93.6
"NLK (Homo sapiens, UniProt Q9UBE8)",88.4
"FGR (Homo sapiens, UniProt P09769)",57.1
"MATK (Homo sapiens, UniProt P42679)",101
"MARK3 (Homo sapiens, UniProt P27448)",91.2
"FLT4 (Homo sapiens, UniProt P35916)",81.1
"Insulin receptor (INSR, Homo sapiens, UniProt P06213)",97.6
"FER (Homo sapiens, UniProt P16591)",59.8
"LIM domain kinase 1 (LIMK1, Homo sapiens, UniProt P53667)",65.3
"CDC42BPA (Homo sapiens, UniProt Q5VT25)",99.7
"HIPK1 (Homo sapiens, UniProt Q86Z02)",109
"ITK (Homo sapiens, UniProt Q08881)",99.4
"ALK (Homo sapiens, UniProt Q9UM73)",96.7
"STK25 (Homo sapiens, UniProt O00506)",90.3

# A few entries again (sample 4):
target,remaining activity [%]
"PRKX (Homo sapiens, UniProt P51817)",102
"PASK (Homo sapiens, UniProt Q96RG2)",97.6
"Cyclin-dependent kinase 3, with cyclin E (CDK3, Homo sapiens, UniProt Q00526)",83.8
"TAOK3 (Homo sapiens, UniProt Q9H2K8)",103
"SRC (Homo sapiens, UniProt P12931)",58.8
"FYN (Homo sapiens, UniProt P06241)",61.3
"AKT1 (Homo sapiens, UniProt P31749)",113
"PKN1 (Homo sapiens, UniProt Q16512)",89.1
"NEK11 (Homo sapiens, UniProt Q8NG66)",93.6
"NLK (Homo sapiens, UniProt Q9UBE8)",88.4
